Experimental data from different studies.
Parts stem from different laboratories: compare values within a part only. Changes are numbered by the printed parent chain.
Chain of UniProt P28335 (whole entry, looked up): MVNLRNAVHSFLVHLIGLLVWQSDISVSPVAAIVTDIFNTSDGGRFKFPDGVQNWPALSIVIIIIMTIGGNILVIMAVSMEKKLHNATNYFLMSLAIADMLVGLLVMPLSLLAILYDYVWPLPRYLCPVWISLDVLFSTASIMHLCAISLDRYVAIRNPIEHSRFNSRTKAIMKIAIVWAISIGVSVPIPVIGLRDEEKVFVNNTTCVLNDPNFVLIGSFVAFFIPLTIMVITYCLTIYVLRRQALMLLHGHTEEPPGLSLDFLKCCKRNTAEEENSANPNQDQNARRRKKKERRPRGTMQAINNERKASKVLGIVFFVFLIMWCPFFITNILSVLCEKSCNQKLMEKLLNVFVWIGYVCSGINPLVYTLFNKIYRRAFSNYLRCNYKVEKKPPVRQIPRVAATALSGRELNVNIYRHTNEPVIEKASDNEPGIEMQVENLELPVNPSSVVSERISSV

Block 1
Target: ABI1, truncated, D143A, DHFR fusion (Arabidopsis thaliana)
Technique: DHFR PCA, deep sequencing
Sample: yeast
Setting: methotrexate growth selection, single substitutions
Added: (+)-ABA 1.4 µM
Relative to: wild-type fitted maximum
Reading: higher = stronger binding
Measurement: relative binding score
Starting sequence: PYL1, truncated, DHFR fusion (Arabidopsis thaliana); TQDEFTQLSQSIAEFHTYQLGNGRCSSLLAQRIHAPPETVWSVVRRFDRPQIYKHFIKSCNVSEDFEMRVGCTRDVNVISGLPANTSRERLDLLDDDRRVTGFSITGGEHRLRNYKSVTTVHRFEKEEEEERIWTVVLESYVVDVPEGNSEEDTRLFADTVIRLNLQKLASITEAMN
Substitution = I12N; result = -9.13%
Substitution = E109T; result = 35.4%
Substitution = S80G; result = 4.5%
Substitution = G23C; result = 16.3%
Substitution = N61L; result = 47.3%
Substitution = L20T; result = 64.9%
Substitution = T17H; result = 10.4%
Substitution = R123D; result = 36.4%

Block 2
Target: PABPC1L2, full length, GST fusion (mouse, UniProt A0ABA7IW68)
Technique: RNAcompete
Form: RNA
Sample: in vitro
Tested at: 20 nM
Setting: 7-mer, probes averaged, single round
Relative to: mean of 7-mers
Reading: higher = stronger binding
Measurement: 7-mer Z-score
Construct (chain): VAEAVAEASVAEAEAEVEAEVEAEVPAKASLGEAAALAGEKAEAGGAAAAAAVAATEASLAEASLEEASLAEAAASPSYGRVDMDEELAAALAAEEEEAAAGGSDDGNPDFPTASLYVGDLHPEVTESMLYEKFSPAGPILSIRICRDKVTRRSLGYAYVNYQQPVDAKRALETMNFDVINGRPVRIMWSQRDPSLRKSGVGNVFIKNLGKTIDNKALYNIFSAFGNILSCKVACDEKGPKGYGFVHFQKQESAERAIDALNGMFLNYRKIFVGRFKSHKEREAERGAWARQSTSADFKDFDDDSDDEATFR
Strand = ACAUGGU; result = -0.121
Strand = AAGUACC; result = -0.021
Strand = ACAGGCG; result = 0.318
Strand = GAACUUA; result = -0.0699
Strand = CGCUCAC; result = -0.4
Strand = GUGGGUA; result = 0.202
Strand = UCGGAUU; result = -0.139
Strand = GGCUUCG; result = -0.13

Other studies, line by line
P1: PafA, mature enzyme, eGFP fusion (Elizabethkingia meningoseptica, UniProt Q9KJX5); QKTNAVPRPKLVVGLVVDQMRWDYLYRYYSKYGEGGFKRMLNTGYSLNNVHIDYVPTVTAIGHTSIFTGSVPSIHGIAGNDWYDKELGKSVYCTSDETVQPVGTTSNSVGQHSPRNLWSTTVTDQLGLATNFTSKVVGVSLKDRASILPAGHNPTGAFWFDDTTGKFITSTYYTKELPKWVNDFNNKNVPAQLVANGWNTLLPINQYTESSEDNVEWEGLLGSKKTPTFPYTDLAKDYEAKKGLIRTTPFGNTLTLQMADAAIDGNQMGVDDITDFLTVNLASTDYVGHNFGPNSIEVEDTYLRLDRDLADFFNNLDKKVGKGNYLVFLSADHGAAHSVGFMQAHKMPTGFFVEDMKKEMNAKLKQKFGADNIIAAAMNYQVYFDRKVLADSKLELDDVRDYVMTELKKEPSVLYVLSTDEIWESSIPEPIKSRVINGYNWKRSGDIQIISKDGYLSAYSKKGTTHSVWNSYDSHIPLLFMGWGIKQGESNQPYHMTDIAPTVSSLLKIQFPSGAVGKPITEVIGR
Substance = P1 I74V; target = vanadate, free oxyanion; assay = microfluidic competitive inhibition; system = in vitro, cell-free expressed; setting = not given, derived from inhibition constants, unchanged parent 676 nM; how to read = lower = stronger binding; measurement = oxyanion analog dissociation constant; result = 699 nM
Substance = CC1=C(C#N)C(c2ccc3c(c2)c(NC(=O)c2ccccc2C)nn3C)C(C#N)=C(C)N1; target = 5-hydroxytryptamine receptor 2C (HTR2C, Homo sapiens, UniProt P28335); assay = ligand displacement; setting = 10 µM; measurement = inhibition; result = 22.5%

Some of these lines once more (block 1):
Substitution = R123D; result = 36.4%
Substitution = L20T; result = 64.9%
